Experimental data from different studies.
A part holds a random share of what one study measured. Changes are numbered by the printed parent chain.

Sample 1
Target: RING finger protein unkempt homolog, zinc fingers 1-6, GST-SBP tag (UNK, Homo sapiens, UniProt Q9C0B0, residues 30-357)
Technique: RNA Bind-n-Seq
Molecule type: RNA
Matrix: in vitro
Concentration: not given
Notes: RNA with constant flanks, human-mouse chimeric sites, ends assumed
Relative to: input RNA pool
Direction: higher = stronger binding
Endpoint: bound/input enrichment
Residues (chain): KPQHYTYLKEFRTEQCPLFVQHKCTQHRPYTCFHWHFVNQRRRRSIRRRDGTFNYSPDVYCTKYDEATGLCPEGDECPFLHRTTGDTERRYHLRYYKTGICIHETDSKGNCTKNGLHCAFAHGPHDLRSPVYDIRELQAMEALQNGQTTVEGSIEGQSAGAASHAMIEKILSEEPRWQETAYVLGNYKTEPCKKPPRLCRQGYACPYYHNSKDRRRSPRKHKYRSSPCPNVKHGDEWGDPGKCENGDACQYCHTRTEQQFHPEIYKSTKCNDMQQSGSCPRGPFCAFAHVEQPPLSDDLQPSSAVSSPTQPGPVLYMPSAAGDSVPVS
Strand = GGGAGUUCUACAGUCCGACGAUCCCAAUUGUGGAGCAGUACUUGAAGACAAAAAAGAACUCUAAUAAUUUAAUCAUCAAGUACAUUAGCUGCCGCCUGCUGACACUCAUCAUUAUACUGUUGGCAUGUAUCUACCUGGGCUAUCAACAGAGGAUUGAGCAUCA; result = 0.443 ratio
Strand = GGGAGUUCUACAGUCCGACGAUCUAAGUCCUGUGCCAGCACUUCGCUCAUAAAGUUUUAAAUUCUGGACCAAUAGUGUUUGUUUCCUGAUUAUUGUAUCCAAUACUUUAUCUAGUAUGUAACUCACUCUUACUGAUAAUAAAACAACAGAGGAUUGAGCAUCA; result = 1.45 ratio
Strand = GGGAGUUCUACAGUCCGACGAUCACAGUUAUACACUGUUGUUUCAUUUUCAUAUAUUCUUGUAGUGUCUGCUUGCCUGUGACUUCUGGUAAAAUAAAAUAAGCCUUUGAAAAUAUUUUAGAUUUAACAUUAACAUUUUCUAAACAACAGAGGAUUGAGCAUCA; result = 6.73 ratio
Strand = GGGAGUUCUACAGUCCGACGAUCGUGCCCUUCUCGCUGCUCCUGCGGGGCAGCUGGGAACCAUUCCGGGACUGGUACCCUGCACACAGCCGCCUCUUCGACCAGGCCUUCGGGGUGCCCCGGUUGCCCGAUGAGUGGUCGCAGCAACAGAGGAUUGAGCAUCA; result = 0.0515 ratio
Strand = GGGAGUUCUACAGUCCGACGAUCGGACAUCUUGUCAGGAUUUAUGUUCCUGUGAAACAAGUGAACACUCUUCAUAUACUAAUCUGCUUGUACAUCUGUAUGAUAGAGAAAUGUAAAUAUGUUAAUCCAAGCAAUGUGUCACUUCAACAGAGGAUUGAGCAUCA; result = 0.26 ratio
Strand = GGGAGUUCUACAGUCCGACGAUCAUUGUUGAAGCUAACCCACUCCUAGAAGCAUUUGGAAAUGCAAAGACUGUUCGCAACAAUAAUAGCAGUCGAUUUGGAAAAUUUGUAGAAAUUCAUUUCAAUGAAAAGAGUUCGGUUGUUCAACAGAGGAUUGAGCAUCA; result = 0.254 ratio
Strand = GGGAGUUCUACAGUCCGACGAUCGCAUAUGGUUAUCGAGGAAAGGACUGUAGAGCGAAUGUAUACCUGCUUCCCACAGGGGAGAUAGUUUAUUUUAUCGCCUCAGUGGUAGUCCUGUUUAAUUAUGAGGAGAGGACUCAGCGACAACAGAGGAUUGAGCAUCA; result = 0.375 ratio
Strand = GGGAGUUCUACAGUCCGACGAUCAGAGAUAAAGCAUCUAGGAACAUGCGAGGCUCCCGGAUGAAUGGGUUGCCUAGCCCCACUCACAGCGCCCACUGUAGCUUCUACCGAACCAGAACCUUGCAGGCAUUGAGUAAUGAGAAGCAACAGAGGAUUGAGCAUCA; result = 0.17 ratio
Strand = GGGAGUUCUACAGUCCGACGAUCUACUGCUGCUUUCAACUUAAAUCACUGAGGCAUCUCUACUGUUCUGUGAGCAUCAGGACUGUAGCGCUGUGUCACCACAUGAGAGUUCAGAAGCAGCCUUUCUGUGGAGAGUGAGAAUGACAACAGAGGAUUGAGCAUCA; result = 0.0657 ratio
Strand = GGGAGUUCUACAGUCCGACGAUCGGCUGCUGGUGACUGUCGGGAGCCGUCUGGAGUUCCCGCCGGAGCGCGGCCAGACUAAUUUUAGAAAAUGCCAAGUAGGAAGUUUGUCGAUGGUGAAGUGGUCAGAGGCCGAUGGCCUGGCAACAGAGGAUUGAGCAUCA; result = 1.34 ratio
Strand = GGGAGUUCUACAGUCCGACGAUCACCAUUUUCGCGGUUCAGGCUUUGUGUUGUAUUUACUCUAUGUAUUAAAUUAUUAUUCUGCUUAGCUUAUAAUAAGGAUAAUUGCAUUUAAAGAGGUUACUGAAUGUUACUCUGAAACUUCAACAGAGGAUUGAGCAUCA; result = 0.374 ratio

Sample 2
Target: CCNF, cyclin fold, Cln2 fusion (human)
Technique: yeast growth competition, sequencing
Matrix: yeast
Notes: strong parent motif
Relative to: not given
Direction: higher = stronger binding
Endpoint: normalised enrichment score
Starting sequence: MICAL3 docking peptide (human); LQLRRQLSFSEDS; partner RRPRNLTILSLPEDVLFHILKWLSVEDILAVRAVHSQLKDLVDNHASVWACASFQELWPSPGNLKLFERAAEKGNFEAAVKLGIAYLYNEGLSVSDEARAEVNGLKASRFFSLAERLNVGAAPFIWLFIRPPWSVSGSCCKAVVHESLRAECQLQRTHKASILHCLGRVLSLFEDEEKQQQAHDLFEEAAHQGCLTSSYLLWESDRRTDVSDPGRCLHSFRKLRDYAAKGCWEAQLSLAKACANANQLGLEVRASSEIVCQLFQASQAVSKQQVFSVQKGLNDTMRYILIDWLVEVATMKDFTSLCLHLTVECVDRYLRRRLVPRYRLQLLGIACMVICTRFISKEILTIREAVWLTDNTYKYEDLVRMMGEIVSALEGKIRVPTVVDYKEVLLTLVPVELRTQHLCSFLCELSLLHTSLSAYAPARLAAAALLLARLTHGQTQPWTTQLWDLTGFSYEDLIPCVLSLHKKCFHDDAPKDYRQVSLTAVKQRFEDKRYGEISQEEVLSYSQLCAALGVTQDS
Variant = S8H; result = 8.05
Variant = Q6W; result = 1.94
Variant = F9V; result = 0.0889
Variant = Q2E; result = 4.34
Variant = R5I; result = 0.392
Variant = S10D; result = 5.04
Variant = E11R; result = 4.2
Variant = Q2L; result = 5.5
Variant = F9W; result = 1.27
Variant = L3W; result = 3.43
Variant = L3D; result = 0.379
Variant = Q2K; result = 5.47
Variant = Q2F; result = 5.01
Variant = R4A; result = 4.41
Variant = R5V; result = 0.242
Variant = R5D; result = 0.166
Variant = D12R; result = 4.98
Variant = S8M; result = 7.77

Sample 3
Target: NFIL3, bZIP domain (human)
Technique: DHFR protein complementation
Matrix: yeast
Notes: single substitutions, most at no-binding floor
Relative to: wild-type JUN-FOS pair
Direction: higher = stronger binding
Endpoint: binding fitness
Starting sequence: JUN, bZIP domain (human); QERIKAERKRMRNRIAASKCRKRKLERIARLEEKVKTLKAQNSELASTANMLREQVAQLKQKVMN; partner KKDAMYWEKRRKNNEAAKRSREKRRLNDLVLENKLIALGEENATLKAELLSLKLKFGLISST
Variant = V56E; result = -1.47 natural log
Variant = E32N; result = -1.41 natural log
Variant = E32H; result = -1.49 natural log
Variant = N42R; result = -1.5 natural log
Variant = E54S; result = -1.33 natural log
Variant = R30S; result = -1.34 natural log
Variant = L59C; result = -1.41 natural log
Variant = M51N; result = -1.3 natural log
Variant = K34A; result = -1.32 natural log
Variant = V56L; result = -1.45 natural log
Variant = E33M; result = -1.15 natural log
Variant = E44L; result = -1.38 natural log
Variant = A40Q; result = -1.38 natural log
Variant = L38C; result = -1.5 natural log
Variant = Q55D; result = -1.42 natural log
Variant = E54W; result = -1.47 natural log
Variant = T37K; result = -1.14 natural log

Sample 4
Target: Prothrombin, mature alpha-thrombin (F2, Homo sapiens, UniProt P00734)
Technique: aptamer microarray, sandwich
Molecule type: DNA with 2'F-ANA
Matrix: in vitro
Concentration: 200 nM
Notes: whole 15-mer aptamer, many near background
Together with: Cy3 exosite-II aptamer, 400 nM
Direction: higher = stronger binding
Endpoint: mean fluorescence intensity
Strand: GGTTGGTGTGGTTGG
Modification = 2'F-ANA at 1 2 3 8 9 11 12 13 15; result = 357 a.u.
Modification = 2'F-ANA at 1 3 4 5 7 9 11 13 14; result = 42.2 a.u.
Modification = 2'F-ANA at 3 5 9 11 12 13 14; result = 56.4 a.u.
Modification = 2'F-ANA at 5 7 8 9 10 12 13 14 15; result = 59.6 a.u.
Modification = 2'F-ANA at 2 3 5 7 10 11 15; result = 59.8 a.u.
Modification = 2'F-ANA at 3 4 6 8 10 11 12 13 14 15; result = 128 a.u.
Modification = 2'F-ANA at 3 6 8 11 12 13; result = 1110 a.u.
Modification = 2'F-ANA at 1 2 5 6 7 9 10 11 12 13 15; result = 49.5 a.u.
Modification = 2'F-ANA at 3 7 9 10 13 15; result = 459 a.u.
Modification = 2'F-ANA at 1 2 12 13 15; result = 311 a.u.
Modification = 2'F-ANA at 1 6 7 8 9 10 11 12 13 14; result = 51.3 a.u.
Modification = 2'F-ANA at 3 6 7 9 10 13 15; result = 478 a.u.
Modification = 2'F-ANA at 1 2 3 6 7 8 11 13 14; result = 66.9 a.u.
Modification = 2'F-ANA at 4 6 9 10 14 15; result = 60.3 a.u.
Modification = 2'F-ANA at 1 3 5 6 7 8 9 10 12; result = 70.6 a.u.
Modification = 2'F-ANA at 1 2 4 5 7 8 13 14 15; result = 89 a.u.
Modification = 2'F-ANA at 1 2 3 4 5 8 12 13; result = 89.5 a.u.
Modification = 2'F-ANA at 2 3 4 6 10 11 12 14 15; result = 161 a.u.
Modification = 2'F-ANA at 1 3 7 8 9 11 12 13 15; result = 373 a.u.
Modification = 2'F-ANA at 1 7 10 11 12; result = 79.4 a.u.
Modification = 2'F-ANA at 1 4 6 7 9 11 12 13; result = 120 a.u.
Modification = 2'F-ANA at 2 3 9 10 14; result = 295 a.u.

Sample 5
Target: ABI1, truncated, D143A, DHFR fusion (Arabidopsis thaliana)
Technique: DHFR PCA, deep sequencing
Matrix: yeast
Notes: methotrexate growth selection, single substitutions
Together with: (+)-ABA 2500 µM
Relative to: wild-type fitted maximum
Direction: higher = stronger binding
Endpoint: relative binding score
Starting sequence: PYL1, truncated, DHFR fusion (Arabidopsis thaliana); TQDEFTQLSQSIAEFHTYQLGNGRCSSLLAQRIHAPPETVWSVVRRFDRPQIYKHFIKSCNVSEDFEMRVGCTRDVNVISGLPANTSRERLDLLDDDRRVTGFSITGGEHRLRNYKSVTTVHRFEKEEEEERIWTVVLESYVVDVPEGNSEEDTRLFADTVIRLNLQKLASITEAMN; partner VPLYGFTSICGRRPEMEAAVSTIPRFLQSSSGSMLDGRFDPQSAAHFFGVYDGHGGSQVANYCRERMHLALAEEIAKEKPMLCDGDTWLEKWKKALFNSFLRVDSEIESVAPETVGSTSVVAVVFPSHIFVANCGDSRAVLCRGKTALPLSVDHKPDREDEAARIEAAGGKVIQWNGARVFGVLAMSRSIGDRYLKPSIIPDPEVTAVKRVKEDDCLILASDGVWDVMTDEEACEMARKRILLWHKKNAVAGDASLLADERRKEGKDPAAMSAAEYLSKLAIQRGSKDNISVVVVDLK
Variant = L29M; result = 91.9%
Variant = L169Y; result = 11.5%
Variant = E89H; result = 26.4%
Variant = R155Y; result = 70.8%
Variant = V62C; result = 98.5%
Variant = M176T; result = 98.3%
Variant = G108R; result = 70.3%
Variant = L164A; result = 99.5%
Variant = V143C; result = 95.2%
Variant = T17D; result = 100%
Variant = E38Q; result = 86.3%
Variant = W41S; result = -5.08%
Variant = Y53K; result = 51%
Variant = N177Q; result = 82.7%
Variant = L166E; result = 4.58%

Further values, each from its own experiment
Molecule = PhoQ, residues 284 288 289 292 302 303 TNASYF; target = PhoP, residues 12 14 15 18 19 LHATL (Escherichia coli, UniProt P23836); test = Sort-seq, measured: YFP reporter; test system = E. coli; conditions = PhoQ-PhoP variant library, together with: 10 µM Mg2+; scale = relative to: high Mg2+ state, higher = stronger signaling; endpoint = fold induction; result = 17.2

Some of these lines once more (sample 2):
Variant = F9V; result = 0.0889
Variant = Q2E; result = 4.34
Variant = R5I; result = 0.392
Variant = S10D; result = 5.04
Variant = E11R; result = 4.2
Variant = Q2L; result = 5.5
Variant = F9W; result = 1.27
Variant = L3W; result = 3.43
Variant = L3D; result = 0.379
Variant = Q2K; result = 5.47
Variant = Q2F; result = 5.01
Variant = R4A; result = 4.41
Variant = R5V; result = 0.242
Variant = R5D; result = 0.166
